Experimental data from different studies.
Compare with care: the assays were run in different laboratories. “And” joins repeats or separate records; there may be more than shown.
Chain of UniProt P11712 (whole entry, looked up): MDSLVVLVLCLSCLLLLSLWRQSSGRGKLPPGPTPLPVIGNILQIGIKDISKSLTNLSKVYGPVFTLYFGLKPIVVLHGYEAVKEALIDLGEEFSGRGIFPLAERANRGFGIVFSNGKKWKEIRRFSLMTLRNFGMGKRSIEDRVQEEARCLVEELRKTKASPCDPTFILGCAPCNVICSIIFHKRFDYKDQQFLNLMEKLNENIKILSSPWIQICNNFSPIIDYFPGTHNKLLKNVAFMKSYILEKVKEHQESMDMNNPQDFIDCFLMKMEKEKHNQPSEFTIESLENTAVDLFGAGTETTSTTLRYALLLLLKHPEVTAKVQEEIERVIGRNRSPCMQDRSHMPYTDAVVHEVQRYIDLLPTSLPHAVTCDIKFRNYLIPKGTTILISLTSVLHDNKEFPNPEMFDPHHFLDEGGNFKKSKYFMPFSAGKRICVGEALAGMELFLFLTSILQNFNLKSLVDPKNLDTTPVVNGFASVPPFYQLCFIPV

With `COC(=O)c1c(NC(=O)Cn2cnc([N+](=O)[O-])n2)sc2c1CCC(C)C2` (centres unmarked) the translation activity was 108% and 104% (Trypanosoma cruzi; reporter mRNA translation, inhibitor, refers to: Renilla luciferase mRNA; cell-free extract; concentration not given, test 1; baseline: positive over negative control).
The viability of `CN1CCCNC(=O)c2cccc(c2)C(=O)NCCCN(C)CCCNc2cccc3c2C(=O)c2cccc(c2C3=O)NCCC1` is reported as 99.2% (mouse bone marrow cells; CCK-8; 0.05 µM, 48 h; baseline: untreated).
With `CCCC[C@H](NC(C)=O)C(=O)N[C@@H](CO)C(=O)N[C@H](C(=O)N1CCC[C@H]1C(=O)N[C@]1(C)CCCCCCC=CCCC[C@@](C)(C(=O)N[C@@H](Cc2ccccc2)C(=O)N[C@@H](CCCCN)C(=O)N[C@@H](CCCNC(=N)N)C(=O)N[C@@H](CC(C)C)C(=O)N[C@@H](CCC(N)=O)C(N)=O)NC(=O)[C@H](CCCNC(=N)N)NC(=O)[C@H](CCCC)NC(=O)[C@H](CC(C)C)NC(=O)[C@H](CCCNC(=N)N)NC(=O)[C@H](CCCNC(=N)N)NC(=O)[C@H](CCCNC(=N)N)NC1=O)[C@@H](C)O` the remaining peptide was 55.8% and 52.4% (proteinase K; LC-MS; 25 µM, 369.1 min, pH 7.4).
For `COCC1CN(C2CCN(c3cc(OC)c(Nc4ncc(Br)c(Nc5ccc6c(c5P(C)(C)=O)OCCO6)n4)cc3C)CC2)C1`, “Cmax at steady state” read 1020 ng/mL (EGFR-mutant NSCLC patients, plasma; oral, 60 mg multiple doses, geometric mean).
`CCN(CC)CC#CCNc1ccnc2cc(Cl)ccc12` — result for “revertants per well”: 0 (Salmonella typhimurium; mini-Ames test; TA97a; 500.0 µg/well, with rat liver S9).
`COC1CN([C@H]2CC[C@H]([C@@]3(C)Oc4c(Cl)cc(C(=O)NCc5c(SC)cc(C)[nH]c5=O)c(C)c4O3)CC2)C1` — result for “log2 fold change”: 1.61 (RNA-seq, refers to: SEMA7A; human, whole blood; dose not given, 24 h; baseline: pretreatment baseline).
The SUV of `O=C(Nc1cnccc1-c1ccc([18F])nc1)c1ccnc(NC(=O)C2CC2)c1` is reported as 0.145 (FVB/NJ mice (both sexes), pancreas; intravenous, dose not given, 120 min).
With `CNC(=O)C1CCCN(C(=O)C2CC3CCC2N3C(=O)[C@@H]2C[C@@H](O)CN2C(=O)NCc2cccc(Cl)c2F)C1` (mixture of isomers) the remaining activity was 102% and 103% and 105% (Cytochrome P450 2C9 (CYP2C9, Homo sapiens, UniProt P11712); preincubation without NADPH; human; 50 µM; baseline: negative control).
For `Nc1ncc(-c2cc(-c3cnn(CC(F)(F)F)c3)ncc2F)nc1C(=O)NC1CNCC(F)C1` (centres unmarked), the remaining binding was 11% (DRAK1; KINOMEscan; 1 µM; baseline: DMSO control).
For `CC(C)(O)c1ncc([S@](N)(=O)=NC(=O)Nc2c3c(cc4c2CCC4)CCC3)s1`, “subjects with adverse events” read 38% (refers to: Gastrointestinal disorders; healthy human volunteers; oral, dose not given, 14 days, multiple dose, all active arms).
For `O=C1C2CC3CC1CC(C(=O)N1CCN(c4ccc([N+](=O)[O-])c5ncccc45)CC1)(C3)C2`, “revertant fold increase” read 1.3 (Salmonella typhimurium; Ames test; TA98; 0.05 µg/well, without S9; baseline: vehicle).
Under “revertant fold increase”, `CC(C)OCCOCc1ccc(OCC(O)CN(N=O)C(C)C)cc1` (centres unmarked) is recorded as 1 fold (Salmonella typhimurium; Ames test; TA100; 15.8 µg/plate, 30 % rat S9; baseline: solvent control).
`CCCn1ncc(CN2CCCC(C(=O)c3cccc(OC(C)C)c3)C2)c1C` (centres unmarked) has a translation activity of 102% (Trypanosoma cruzi; reporter mRNA translation, inhibitor, refers to: Renilla luciferase mRNA; cell-free extract; concentration not given, test 3; baseline: positive over negative control).
For `COc1ccc2c(c1)C(C)(C)C(/C=C/C1=C(Oc3ccc(C(=O)NCCCCOc4cc(CN(Cc5ccccn5)Cc5ccccn5)cc(CN(Cc5ccccn5)Cc5ccccn5)c4)cc3)C(=C/C=C3/N(CCCCS(=O)(=O)[O-])c4ccc(OC)cc4C3(C)C)CCC1)=[N+]2CCCCS(=O)(=O)[O-].O=[N+]([O-])[O-].O=[N+]([O-])[O-].[99Tc+].[C-]#[O+].[C-]#[O+].[C-]#[O+].[Zn+2]`, the tissue uptake was 1.24 %ID/g (Staphylococcus aureus; BALB/c mice, bacterial myositis, stomach with contents; 12 h).

Excerpt of the above:
With `COC(=O)c1c(NC(=O)Cn2cnc([N+](=O)[O-])n2)sc2c1CCC(C)C2` (centres unmarked) the translation activity was 108% and 104% (Trypanosoma cruzi; reporter mRNA translation, inhibitor, refers to: Renilla luciferase mRNA; cell-free extract; concentration not given, test 1; baseline: positive over negative control).
Under “revertant fold increase”, `CC(C)OCCOCc1ccc(OCC(O)CN(N=O)C(C)C)cc1` (centres unmarked) is recorded as 1 fold (Salmonella typhimurium; Ames test; TA100; 15.8 µg/plate, 30 % rat S9; baseline: solvent control).
